Results of several laboratories.
± marks the error that the study gave.

SMILES	assay	system	conditions	Tmax [h]
CCOc1c([C@H](C)n2nc(C)c3c(N)ncnc32)cc(Cl)c(F)c1[C@@H]1CNC(=O)C1		patients with indolent lymphoma, plasma	oral, 30 mg, day 15, monotherapy	1
CC(=O)Nc1ccc(C[C@H](NC(=O)[C@H](CO)NC(=O)[C@@H](Cc2cccnc2)NC(=O)[C@@H](Cc2ccc(Cl)cc2)NC(=O)[C@@H](Cc2ccc3ccccc3c2)NC(C)=O)C(=O)N[C@H](Cc2ccc(NC(C)=O)cc2)C(=O)N[C@@H](CC(C)C)C(=O)N[C@@H](CCCCNC(C)C)C(=O)N2CCC[C@H]2C(=O)N[C@H](C)C(N)=O)cc1		healthy men, fasted, serum	oral, 20 mg single dose	7.7 ± 16
CS(=O)(=O)c1ccc([C@@H](O)[C@@H](CF)NC(=O)C(Cl)Cl)cc1		chicken (Arbor Acres), plasma	oral, 20 mg/kg, together with: quercetin 20 mg/kg pretreatment	0.8 ± 0.11
CCNC(=O)[C@@H]1CCCN1C(=O)[C@H](CCCNC(=N)N)NC(=O)[C@H](CC(C)C)NC(=O)[C@@H](CC(C)C)NC(=O)[C@H](Cc1ccc(O)cc1)NC(=O)[C@H](CO)NC(=O)[C@H](Cc1c[nH]c2ccccc12)NC(=O)[C@H](Cc1c[nH]cn1)NC(=O)[C@@H]1CCC(=O)N1		healthy female volunteers	subcutaneous, 1 mg single dose	3.49 ± 0.23
CO[C@H]1CC[C@H](N2C(=O)CNc3ncc(-c4ccc(C(C)(C)O)nc4)nc32)CC1		patients, plasma	oral, 7.5 mg, day 15, median	1.5
Cc1c(C(=O)O)ccc2c3n(nc12)[C@@H]1[C@H](C3)N(CC2CC2)[C@@]2(C(=O)Nc3cc(Cl)ccc32)[C@H]1c1cccc(Cl)c1F		cancer patients, plasma	oral, 45 mg day 1 every 3 weeks, median, cycle 1	5
COc1nnc2ccc(N3CCC(c4ccc(OCCN5CCN(C)C(=O)[C@H]5C)cc4)CC3)nn12		patients, plasma	oral, 15 mg twice daily, single dose, monotherapy, median	1
C[C@H]1CN(C(=O)CC#N)[C@]12CCN(c1ncnc3[nH]ccc13)C2		healthy adults, plasma	oral, 1.5 mg single dose, median	1
CN(CCC(=O)O)C(=O)c1ccc2c(c1)CC[C@@H]1[C@@H]2CC[C@]2(C)C(c3cncc(F)c3)=CC[C@@H]12		postmenopausal women, plasma	90 mg single dose, median	1.52
COc1cc(Nc2ncc3c(n2)-c2ccc(Cl)cc2C(c2c(F)cccc2OC)=NC3)ccc1C(=O)O		cancer patients, plasma	oral, 40 mg, cycle 1 day 1, together with: pembrolizumab	3.5
CCCCC[C@H](O)CC[C@@H]1[C@H]2Cc3cccc(OCC(=O)O)c3C[C@H]2C[C@H]1O	LC-MS/MS	Japanese PAH patients, male, plasma	inhaled, 54 µg, mean	0.32
CC[C@H](C)CCCCC(=O)N[C@@H](CCN)C(=O)N[C@H](C(=O)N[C@@H](CCN)C(=O)N[C@H]1CCNC(=O)[C@H]([C@@H](C)O)NC(=O)[C@H](CCN)NC(=O)[C@H](CCN)NC(=O)[C@H](CC(C)C)NC(=O)[C@@H](Cc2ccccc2)NC(=O)[C@H](CCN)NC1=O)[C@@H](C)O		long-term haemodialysis patients, plasma	IV infusion, 0.75 mg/kg, 1 h infusion, median	1
CC(=O)c1c(C)c2cnc(Nc3ccc(N4CCNCC4)cn3)nc2n(C2CCCC2)c1=O		cancer patients, plasma	oral, 100 mg, cycle 1 day 15, together with: neratinib 240 mg	3.9
O=C(c1cccnc1-c1ccncc1)N1CCC(O)(Cc2ccccc2)CC1		healthy Japanese adults, plasma	oral, 100 mg twice daily, day 1, median	0.75
C[C@@](Cc1ccc(O)c(O)c1)(NN)C(=O)O		female Parkinson's disease patients, plasma	oral, median	1.75
C[C@H]1[C@H]2N(C(=O)CN(C)N2C(=O)NCc2ccccc2)[C@@H](Cc2ccc(OP(=O)(O)O)cc2)C(=O)N1Cc1cccc2cccnc12		patients, plasma	intravenous infusion, 140 mg/m2 over 4 h, mean	0.8
CN(C)C(=O)c1cc2cnc(Nc3ccc(N4CCNCC4)cn3)nc2n1C1CCCC1		patients, plasma	oral, steady state, median, together with: letrozole	3.62

Some of these lines once more:
SMILES	assay	system	conditions	Tmax [h]
CCOc1c([C@H](C)n2nc(C)c3c(N)ncnc32)cc(Cl)c(F)c1[C@@H]1CNC(=O)C1		patients with indolent lymphoma, plasma	oral, 30 mg, day 15, monotherapy	1
CS(=O)(=O)c1ccc([C@@H](O)[C@@H](CF)NC(=O)C(Cl)Cl)cc1		chicken (Arbor Acres), plasma	oral, 20 mg/kg, together with: quercetin 20 mg/kg pretreatment	0.8 ± 0.11
